Assay results from different studies.
Compare with care: the assays were run in different laboratories. Numbers after ± are the reported error.
Chain of UniProt Q92851 (whole entry, looked up): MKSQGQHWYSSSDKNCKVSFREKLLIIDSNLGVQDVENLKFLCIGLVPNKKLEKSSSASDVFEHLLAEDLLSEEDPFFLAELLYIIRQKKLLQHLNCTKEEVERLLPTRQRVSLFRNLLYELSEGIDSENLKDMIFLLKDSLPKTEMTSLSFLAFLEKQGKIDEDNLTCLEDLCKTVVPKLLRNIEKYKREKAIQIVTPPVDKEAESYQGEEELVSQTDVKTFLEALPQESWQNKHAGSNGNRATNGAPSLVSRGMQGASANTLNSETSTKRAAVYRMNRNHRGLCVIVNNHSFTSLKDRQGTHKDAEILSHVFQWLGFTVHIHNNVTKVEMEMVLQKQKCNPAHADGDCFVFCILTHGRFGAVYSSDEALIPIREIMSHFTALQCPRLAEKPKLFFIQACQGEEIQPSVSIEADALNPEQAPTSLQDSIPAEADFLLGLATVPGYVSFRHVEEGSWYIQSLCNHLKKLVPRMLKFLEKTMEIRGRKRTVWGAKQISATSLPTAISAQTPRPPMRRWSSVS

`CNS(=O)(=O)Nc1nccc(Cc2c(C)c3ccc(Oc4ncccc4F)cc3oc2=O)c1F` has an IC50 of > 1 µM (YH-13; cell viability, CellTiter-Glo; 7 days).
`C=CC(=O)Nc1cccc(Cn2ncc3cnc(Nc4cnn(CCOC)c4)nc32)c1`: “percent of control” 27% (ERK8 human; binding, KINOMEscan; 100 nM; lower = stronger binding).
`CCCC[C@H](NC(=O)CCCCCCCNC(=O)CN1CCN(CC(=O)O)CCN(CC(=O)O)CC1)C(=O)N[C@H]1CC(=O)NCCCC[C@@H](C(N)=O)NC(=O)[C@H](Cc2c[nH]c3ccccc23)NC(=O)[C@H](CCCNC(=N)N)NC(=O)[C@@H](Cc2ccccc2)NC(=O)[C@H](Cc2c[nH]cn2)NC1=O` [technetium-99m labelled] gave a tissue uptake of 0.59 ± 0.41 %ID/g (C57 mouse, stomach; intravenous, 0.037 MBq, 4 h).
`C=C(NC(=O)c1csc(-c2nc3c(cc2O)-c2nc(cs2)C(=O)NC(C(C)O)C(=O)NC(=C(C)OC)c2nc(cs2)C(=O)NC2c4nc(cs4)C(=O)NC(COC(=O)c4c5c6c(cccc6n4O)COC(=O)C(OC4CC(C)(O)C(N(C)C)C(C)O4)C2OC5)c2nc-3cs2)n1)C(N)=O` (stereo not drawn) has an AUC(0-last) of 21500 ng·h/mL (cynomolgus monkey, male, plasma; intravenous infusion, 3 mg/kg, multiple doses, day 7).
Under “log2 fold change”, `Cn1ncc2cc(-c3cncc(Cl)c3N3CCC4(CCNC4=O)CC3)ccc21` is recorded as 2.55 (LS174T; gene expression, microarray, item: RPSA mRNA; concentration not given, 24 h; baseline: untreated cells).
The kinact/KI of `CC(=O)N[C@@H](Cc1ccccc1Cl)C(=O)N[C@@H](CCC(=O)O)C(=O)N[C@@H](C)C(=O)N[C@@H](CC(=O)O)C(=O)COC(=O)c1c(C)cccc1C` is reported as 374000 M⁻¹ s⁻¹ (Caspase-10 (CASP10, Homo sapiens, UniProt Q92851); enzyme activity, inhibitor).
`Nc1ncc(-c2cc(-c3cnn(CC(F)(F)F)c3)ncc2F)nc1C(=O)NC1CNCC(F)C1` (stereo not drawn) has a remaining binding of 100% (PRKCI; KINOMEscan; 1 µM; baseline: DMSO control).
`COC1CN([C@H]2CC[C@H]([C@@]3(C)Oc4c(Cl)cc(C(=O)NCc5c(SC)cc(C)[nH]c5=O)c(C)c4O3)CC2)C1` — result for “log2 fold change”: 2.07 (RNA-seq, item: RAB19; human, whole blood; dose not given, 24 h; baseline: pretreatment baseline).
`C=C1CC[C@H](OCCCNC(=O)CCOCCOCCOCCOCCOCCOCCOCCOCCOCCOCCOCCOCCOCCOCCOCCOCCOCCOCCOCCOCCOCCOCCOCCOCCOCCOCCOCCOCCOCCOCCOCCOCCOCCOCCOCCOCCNC(=O)CCN2C(=O)CC(SC[C@H](NC(=O)[C@H](Cc3ccccc3)NC(=O)[C@H](CC(N)=O)NC(=O)[C@H](Cc3c[nH]cn3)NC(=O)[C@@H](NC(=O)[C@H](CC(=O)O)NC(=O)[C@H](CCC(N)=O)NC(=O)[C@H](CC(C)C)NC(=O)[C@H](CCCCN)NC(=O)[C@H](CCCCN)NC(=O)[C@H](CCCNC(=N)N)NC(=O)[C@H](CC(C)C)NC(=O)[C@H](Cc3c[nH]c4ccccc34)NC(=O)[C@H](CCC(=O)O)NC(=O)[C@@H](NC(=O)[C@H](CCCNC(=N)N)NC(=O)[C@H](CCC(=O)O)NC(=O)[C@H](CCSC)NC(=O)[C@H](CO)NC(=O)[C@H](CC(N)=O)NC(=O)[C@H](CC(C)C)NC(=O)[C@H](Cc3c[nH]cn3)NC(=O)[C@H](CCCCN)NC(=O)CNC(=O)[C@H](CC(C)C)NC(=O)[C@H](CC(N)=O)NC(=O)[C@H](Cc3c[nH]cn3)NC(=O)[C@H](CCSC)NC(=O)[C@H](CC(C)C)NC(=O)[C@H](CCC(N)=O)NC(=O)[C@@H](NC(=O)[C@H](CCC(=O)O)NC(=O)[C@H](CO)NC(=O)[C@@H](NC(=O)[C@@H](N)CO)C(C)C)[C@@H](C)CC)C(C)C)C(C)C)C(=O)O)C2=O)C/C1=C/C=C1\CCC[C@]2(C)[C@@H]([C@H](C)CCCC(C)(C)O)CC[C@@H]12` (stereo partly drawn) has an AUC(0-t) of 170 ng·h/mL (male Sprague-Dawley rat, plasma; subcutaneous, 30 µg/kg, single dose).
For `CN1CCCNC(=O)c2cccc(c2)C(=O)NCCCN(C)CCCNc2cccc3c2C(=O)c2cccc(c2C3=O)NCCC1`, “log2 fold change” read -0.662 (SAS; RNA-Seq, item: TPP2 mRNA; 1 µM, 6 h; baseline: untreated cells).
For `Cc1ncsc1-c1ccc(C(C)NC(=O)C2CC(O)CN2C(=O)C(NC(=O)CCCCCCCCCCN2CCCC(Nc3ncc(Cl)c(Nc4ccccc4S(=O)(=O)C(C)C)n3)C2)C(C)(C)C)cc1` (stereo not drawn), “log2 fold change” read -1.03 (22Rv1; RNA-seq, item: PIP5K1C mRNA; concentration not given; baseline: DMSO).
For `CCN(C(=O)c1cc(F)ccc1Oc1nncnc1N1CCC2(C1)CN([C@H](CCCN(C)CCOC)C(C)C)C2)C(C)C`, the GI50 was > 10 µM (L-363; cell growth or viability; 72 h).

Repeated from above:
`C=CC(=O)Nc1cccc(Cn2ncc3cnc(Nc4cnn(CCOC)c4)nc32)c1`: “percent of control” 27% (ERK8 human; binding, KINOMEscan; 100 nM; lower = stronger binding).
`CCCC[C@H](NC(=O)CCCCCCCNC(=O)CN1CCN(CC(=O)O)CCN(CC(=O)O)CC1)C(=O)N[C@H]1CC(=O)NCCCC[C@@H](C(N)=O)NC(=O)[C@H](Cc2c[nH]c3ccccc23)NC(=O)[C@H](CCCNC(=N)N)NC(=O)[C@@H](Cc2ccccc2)NC(=O)[C@H](Cc2c[nH]cn2)NC1=O` [technetium-99m labelled] gave a tissue uptake of 0.59 ± 0.41 %ID/g (C57 mouse, stomach; intravenous, 0.037 MBq, 4 h).
